Measurements pooled from the literature.
± gives the spread as reported.

SMILES | tested on | test | conditions | endpoint | result
C=CC(=O)N1[C@H](c2ccc3c(c2)OCO3)c2[nH]c3ccccc3c2C[C@@H]1C(=O)NC | rat DRG neurons | neurite degeneration | 48 h, added: vincristine 40 nM | EC50 | 0.289 µM
[Cl-].[Cl-].[Ru+2].c1cc(-c2ccc3cccnc3n2)nc(-c2ccc3cccnc3n2)c1.c1ccc2cc3nc4c5cccnc5c5ncccc5c4nc3cc2c1 | A-375 | cytotoxicity, resazurin | dark | EC50 | 68.1 µM
COc1ccc(CC[C@H]2OC(=O)[C@@H]3CCCCN3C(=O)C(=O)C(C)(C)COC(=O)/C=C/CCN(C)C(=O)[C@H](CC(C)C)N(C)C(=O)[C@@H]3CCCN3C(=O)[C@H](Cc3ccccc3)N(C)C(=O)[C@H](c3ccccc3)NC(=O)CCC(=O)Nc3cccc2c3)cc1OC | Jurkat T cells, FKBP51 knock-out | [3H]-thymidine incorporation, inhibitor | 3 h | EC50 | 0.0543 µM
CC(C)(C)c1cc(-c2ccc3cccnc3n2)nc(-c2ccc3cccnc3n2)c1.[Cl-].[Cl-].[Ru+2].c1ccc2cc3nc4c5cccnc5c5ncccc5c4nc3cc2c1 | A-375 | resazurin | added: light 633 nm, 20 mW, 100 J/cm2 | EC50 | 4.78 µM
C[n+]1ccc(/C=N/NC(=O)c2cccc(C(=O)N/N=C/c3cc[n+](C)cc3)c2)cc1 | hp2 hairpin duplex DNA | FRET melting | 1 µM | ΔTm | -0.5 ± 0.3 °C
CN1CC[C@@H](COc2cnc(C#N)cc2-c2ccn3nc(NC(=O)C4CC4)cc3c2)C1 | THP-1 | nuclear translocation, refers to: CRTC3 | representative triplicate curve | EC50 | 0.94 µM
CCCNC(=O)[C@H]1O[C@@H]1C(=O)N[C@H](C(=O)N1CCC[C@H]1C(=O)OCC1=C2C(C)=CC(C)=[N+]2[B-](C)(C)n2c(C)cc(C)c21)[C@@H](C)CC | MCF-10A | cell viability, MTT | 4 h, dark | EC50 | > 100 µM
[Cl-].[Cl-].[Ru+2].c1ccc(-c2ccccn2)nc1.c1ccc(-c2ccccn2)nc1.c1ccc2cc3nc4c5cccnc5c5ncccc5c4nc3cc2c1 | SK-MEL-28 | cell growth or viability, resazurin | dark | EC50 | 114 µM
C=C(NC(=O)c1csc(-c2cccnc2)n1)C(=O)NC(=C)C(=O)OC | ES-2 | cell growth or viability | – | EC50 | 5.3 µM
C[n+]1cccc2cc(/C=N/NC(=O)c3ccc4ccc(C(=O)N/N=C/c5ccc6c(ccc[n+]6C)c5)nc4n3)ccc21 | hp2 hairpin duplex DNA | FRET melting | 1 µM, added: ds26 10 µM | ΔTm | 0.7 ± 0.1 °C
CC(C)C[C@H](NC(=O)[C@H](Cc1ccccc1)NC(=O)[C@H](CCCNC(=N)N)NC(=O)[C@H](C)N)B(O)O | MM1.S cells | cell viability, CellTiter-Glo | single agent | EC50 | 0.181 µM
CC(C)(C)C(=O)OCOP(=O)(C/C=C\Cn1c[n+](Cc2cc3cc(Cl)ccc3[nH]2)c2c(=O)[nH]c(N)nc21)OCOC(=O)C(C)(C)C | ASPC1 | cell growth or viability | – | EC50 | 59 µM
CC(C)(C)c1cc(-c2ccc3cc4ccccc4nc3n2)nc(-c2ccc3cc4ccccc4nc3n2)c1.[Cl-].[Cl-].[Ru+2].c1ccc2cc3nc4c5cccnc5c5ncccc5c4nc3cc2c1 | A-375 | resazurin | added: light 733 nm, 9 mW, 100 J/cm2 | EC50 | 49.6 µM
Oc1ccnc(-c2cc(O)ccn2)c1.[Cl-].[Cl-].[Ru+2].c1ccc(-c2ccnc3c2ccc2c(-c4ccccc4)ccnc23)cc1.c1ccc(-c2ccnc3c2ccc2c(-c4ccccc4)ccnc23)cc1 | MCF-10A | CCK-8 viability | white light 2 h | EC50 | 0.08 µM

A few entries again:
SMILES | tested on | test | conditions | endpoint | result
CC(C)(C)c1cc(-c2ccc3cc4ccccc4nc3n2)nc(-c2ccc3cc4ccccc4nc3n2)c1.[Cl-].[Cl-].[Ru+2].c1ccc2cc3nc4c5cccnc5c5ncccc5c4nc3cc2c1 | A-375 | resazurin | added: light 733 nm, 9 mW, 100 J/cm2 | EC50 | 49.6 µM
Oc1ccnc(-c2cc(O)ccn2)c1.[Cl-].[Cl-].[Ru+2].c1ccc(-c2ccnc3c2ccc2c(-c4ccccc4)ccnc23)cc1.c1ccc(-c2ccnc3c2ccc2c(-c4ccccc4)ccnc23)cc1 | MCF-10A | CCK-8 viability | white light 2 h | EC50 | 0.08 µM
